Published values pooled from the literature.
Values joined by “and” are separate records of one study, mostly repeats; a detail may differ. ± marks the error that the study gave. Converted amounts (≈) assume the structure as drawn.
Organism: Staphylococcus aureus

For `C/C(=C\C(=O)OCCCCCCCCC(=O)O)C[C@@H]1OC[C@H](C[C@@H]2O[C@H]2[C@@H](C)[C@H](C)O)[C@@H](O)[C@H]1O`, “wound healing rate” read 97.2% (ATCC 43300 MRSA, C57BL/6 mouse skin wound infection; topical, 1 × MIC, 14 days).
`O=C1/C(=C/c2ccc(O)cc2O)NC(=S)N1c1ccccc1` — result for “inhibition zone diameter”: 12 ± 0.3 mm (ATCC 6538; concentration not given).
With `CC(=O)NC[C@H]1CN(c2ccc(N3CCOCC3)c(F)c2)C(=O)O1` the MIC50 was 0.5 µg/mL (≈ 1.48 µM) (MRSA; 10 isolates).
The MBC of `COc1c(C)c(O)c(C)c(O)c1C(=O)/C=C/c1ccccc1` is reported as 5000 µg/mL (broth microdilution; ATCC 25923).
`CC(C)c1ccc(/C=C2\N=C(SCc3ccccc3)N(c3ccccc3)C2=O)cc1` — result for “inhibition zone diameter”: 12 ± 0.1 mm (ATCC 6538; concentration not given).
With `CC[C@H]1OC(=O)[C@H](C)[C@@H](O[C@H]2C[C@@](C)(OC)[C@@H](O)[C@H](C)O2)[C@H](C)[C@@H](O[C@@H]2O[C@H](C)C[C@H](N(C)C)[C@H]2O)[C@](C)(O)C[C@@H](C)/C(=N\OCOCCOC)[C@H](C)[C@@H](O)[C@]1(C)O` the MIC50 was 4 µg/mL (≈ 4.78 µM).
`COC(=O)[C@H](C)NC(=O)[C@H](Cc1ccccc1)NC(=O)C1OCC2(CCCCC2)CO1` has a residual biofilm of 23 ± 8% (crystal violet staining; 500 µg/mL, 24 h; relative to: untreated).
`OC[C@H]1O[C@@H](Oc2cc3c(O)cc(O)cc3[o+]c2-c2ccc(O)c(O)c2)[C@H](O)[C@@H](O)[C@H]1O` has an IC50 of 21.9 µM (bacterial growth; ATCC 29213; 24 h).
`CNC(C)C1CCC(N)C(OC2C(N)CC(N)C(OC3OCC(C)(O)C(NC)C3O)C2O)O1` (stereo not shown) — result for “inhibition zone diameter”: 18 mm (CGMCC 1.9; concentration not given, 18 h, 37 °C).
Under “biofilm mass reduction”, `CCCCCCCCCC(=O)N[C@@H](Cc1c[nH]c2ccccc12)C(=O)N[C@H](CC(N)=O)C(=O)N[C@@H](CC(=O)O)C(=O)N[C@@H]1C(=O)NCC(=O)N[C@@H](CCCN)C(=O)N[C@@H](CC(=O)O)C(=O)N[C@H](C)C(=O)N[C@@H](CC(=O)O)C(=O)NCC(=O)N[C@H](CO)C(=O)N[C@@H]([C@H](C)CC(=O)O)C(=O)N[C@@H](CC(=O)c2ccccc2N)C(=O)O[C@@H]1C` is recorded as roughly 49% (XTT, preformed biofilm; ATCC BAA-1556, MRSA; 2 × MIC, 24 h).
For `O=C(O)c1ccc(-n2cc(CNc3ccc(Cl)c(C(F)(F)F)c3)c(-c3cccc(F)c3)n2)cc1`, the biofilm MIC was 2 × planktonic MIC (ATCC 25923; 24 h, preformed biofilm).
`CO/N=C(\C(=O)N[C@@H]1C(=O)N2C(C(=O)O)=C(COC(C)=O)CS[C@H]12)c1csc(N)n1` — result for “inhibition zone diameter”: 21.5 mm (CGMCC 1.9; concentration not given, 18 h, 37 °C).
For `Cc1ccc(C[C@H](NC(=O)[C@@H](Cc2ccccc2)NC(=O)[C@@H](Cc2c[nH]c3ccccc23)NC(=O)[C@@H](N)CCCN)C(=O)N[C@H](Cc2ccccc2)C(=O)N[C@H](Cc2c[nH]cn2)C(N)=O)cc1`, the IC50 was greater than 20 µg/mL (ATCC 33591, methicillin-resistant).
`CN[C@H](CC(C)C)C(=O)N[C@H]1C(=O)N[C@@H](CC(N)=O)C(=O)N[C@H]2C(=O)N[C@H]3C(=O)N[C@H](C(=O)N[C@H](C(=O)O)c4cc(O)cc(O)c4-c4cc3ccc4O)[C@H](O)c3ccc(c(Cl)c3)Oc3cc2cc(c3O[C@@H]2O[C@H](CO)[C@@H](O)[C@H](O)[C@H]2O[C@H]2C[C@](C)(N)[C@H](O)[C@H](C)O2)Oc2ccc(cc2Cl)[C@H]1O` gave an MBC of 1 µM (broth microdilution; MRSA NCTC 12493).
The MBC of `[Cl][Fe]([Cl])[Cl]` is reported as greater than 1600 µM (24 h, 37 °C).
With `COc1cc(-c2oc3cc(O)cc(O)c3c(=O)c2O[C@@H]2O[C@H](CO[C@@H]3O[C@@H](C)[C@H](O)[C@@H](O)[C@H]3O)[C@@H](O)[C@H](O)[C@H]2O)ccc1O` the IC50 was greater than 100 µM (bacterial growth; ATCC 29213; 24 h).
With `CC1(C)OCC(C(=O)NCCc2ccccc2)O1` (stereo not shown) the residual biofilm was 41 ± 13% (crystal violet staining; 500 µg/mL, 24 h; relative to: untreated).
The biofilm inhibition of `Cc1c2c(nn1C)CSCc1cc(n(C)n1)CSc1cc(c3ccccc3c1)OCCCc1c(C(=O)O)n(C)c3c-2c(Cl)ccc13` is reported as roughly 80% (crystal violet staining; MSSA and MRSA clinical isolates; 1/2 x MIC, 24 h).
Under “inhibition zone diameter”, `CCCCCCCCCCCC1NCCc2cc(O)c(O)cc21` (stereo not shown) is recorded as 10.2 mm (ATCC 25923; 40 µg per disc, 24 h, 37 °C).
`CN[C@H](CC(C)C)C(=O)N[C@H]1C(=O)N[C@@H](CC(N)=O)C(=O)N[C@H]2C(=O)N[C@H]3C(=O)N[C@H](C(=O)N[C@H](C(=O)O)c4cc(O)cc(O)c4-c4cc3ccc4O)[C@H](O)c3ccc(c(Cl)c3)Oc3cc2cc(c3O[C@@H]2O[C@H](CO)[C@@H](O)[C@H](O)[C@H]2O[C@H]2C[C@](C)(N)[C@H](O)[C@H](C)O2)Oc2ccc(cc2Cl)[C@H]1O` — result for “intracellular bacteria killed”: 32.6% (colony counting; RAW264.7 29213 infected, 29213; 32 µM, 4 h).
With `COc1cc(-c2oc3cc(O)cc(O)c3c(=O)c2O[C@@H]2O[C@H](CO)[C@@H](O)[C@H](O)[C@H]2O)ccc1O` the IC50 was greater than 100 µM (bacterial growth; ATCC 29213; 24 h).
The IC50 of `Cl.Oc1cccc2c1[nH]c1c(C3=CC4(O)CC/C=C\CCCCN5CCC3C3(CC6/C=C\CCCCN6C43)C5)nccc12` (single isomer, unassigned; (+)) is reported as 0.61 ± 0.01 µg/mL (growth; ATCC 43300, MRSA).
The IC50 of `C[C@@H]1O[C@@H](OC[C@H]2O[C@@H](Oc3cc4c(O)cc(O)cc4[o+]c3-c3cc(O)c(O)c(O)c3)[C@H](O)[C@@H](O)[C@@H]2O)[C@H](O)[C@H](O)[C@H]1O` is reported as 22 µM (bacterial growth; ATCC 29213; 24 h).
The MBEC of `CC(=O)NC[C@H]1CN(c2ccc(N3CCOCC3)c(F)c2)C(=O)O1` is reported as greater than 2000 µM (Calgary Biofilm Device; MRSA 1707 biofilm; 24 h).
With `CN[C@H](CC(C)C)C(=O)N[C@H]1C(=O)N[C@@H](CC(N)=O)C(=O)N[C@H]2C(=O)N[C@H]3C(=O)N[C@H](C(=O)N[C@H](C(=O)O)c4cc(O)cc(O)c4-c4cc3ccc4O)[C@H](O)c3ccc(c(Cl)c3)Oc3cc2cc(c3O[C@@H]2O[C@H](CO)[C@@H](O)[C@H](O)[C@H]2O[C@H]2C[C@](C)(N)[C@H](O)[C@H](C)O2)Oc2ccc(cc2Cl)[C@H]1O` the bacterial load was 5.39 log CFU and 6.02 log CFU and 3.37 log CFU and 5.09 log CFU and 4.58 log CFU (USA300 LAC, female ICR mice, peritonitis, kidney).
